Assay results gathered from unrelated publications.
Parts stem from different laboratories: compare values within a part only.
Sequence of UniProt Q15303 (whole entry, looked up): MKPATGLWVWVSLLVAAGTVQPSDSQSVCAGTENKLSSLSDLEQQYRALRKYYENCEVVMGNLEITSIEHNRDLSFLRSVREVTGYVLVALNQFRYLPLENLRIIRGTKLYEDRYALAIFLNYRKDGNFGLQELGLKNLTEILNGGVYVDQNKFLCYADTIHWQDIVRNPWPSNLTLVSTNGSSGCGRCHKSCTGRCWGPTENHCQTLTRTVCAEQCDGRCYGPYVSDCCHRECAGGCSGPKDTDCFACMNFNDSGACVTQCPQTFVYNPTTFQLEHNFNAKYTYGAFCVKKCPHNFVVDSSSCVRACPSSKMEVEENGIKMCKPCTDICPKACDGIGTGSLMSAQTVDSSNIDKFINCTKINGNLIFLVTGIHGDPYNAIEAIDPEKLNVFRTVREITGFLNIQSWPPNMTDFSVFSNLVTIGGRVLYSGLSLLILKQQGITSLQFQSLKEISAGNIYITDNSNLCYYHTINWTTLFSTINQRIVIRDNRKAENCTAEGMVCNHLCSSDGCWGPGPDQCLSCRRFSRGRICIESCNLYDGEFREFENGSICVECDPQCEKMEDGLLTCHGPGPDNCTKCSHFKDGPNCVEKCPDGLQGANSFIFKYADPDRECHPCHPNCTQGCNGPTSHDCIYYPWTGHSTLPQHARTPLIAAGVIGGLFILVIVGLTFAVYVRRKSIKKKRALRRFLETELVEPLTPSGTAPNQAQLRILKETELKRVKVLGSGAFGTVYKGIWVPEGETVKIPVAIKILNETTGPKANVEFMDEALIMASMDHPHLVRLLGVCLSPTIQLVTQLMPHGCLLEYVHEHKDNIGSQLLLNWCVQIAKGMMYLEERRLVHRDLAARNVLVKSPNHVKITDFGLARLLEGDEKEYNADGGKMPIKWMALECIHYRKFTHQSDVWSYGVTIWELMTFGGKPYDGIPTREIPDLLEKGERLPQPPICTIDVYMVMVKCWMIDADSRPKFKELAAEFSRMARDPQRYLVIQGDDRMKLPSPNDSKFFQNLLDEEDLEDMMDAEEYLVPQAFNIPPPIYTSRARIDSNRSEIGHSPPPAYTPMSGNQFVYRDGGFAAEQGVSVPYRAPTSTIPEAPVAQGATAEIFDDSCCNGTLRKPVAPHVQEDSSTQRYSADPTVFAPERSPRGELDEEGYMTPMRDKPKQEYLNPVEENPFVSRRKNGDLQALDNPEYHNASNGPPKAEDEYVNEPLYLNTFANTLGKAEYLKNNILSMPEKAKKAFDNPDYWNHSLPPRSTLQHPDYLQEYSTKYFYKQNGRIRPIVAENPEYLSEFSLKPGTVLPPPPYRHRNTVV
Sequence of UniProt P52333 (whole entry, looked up): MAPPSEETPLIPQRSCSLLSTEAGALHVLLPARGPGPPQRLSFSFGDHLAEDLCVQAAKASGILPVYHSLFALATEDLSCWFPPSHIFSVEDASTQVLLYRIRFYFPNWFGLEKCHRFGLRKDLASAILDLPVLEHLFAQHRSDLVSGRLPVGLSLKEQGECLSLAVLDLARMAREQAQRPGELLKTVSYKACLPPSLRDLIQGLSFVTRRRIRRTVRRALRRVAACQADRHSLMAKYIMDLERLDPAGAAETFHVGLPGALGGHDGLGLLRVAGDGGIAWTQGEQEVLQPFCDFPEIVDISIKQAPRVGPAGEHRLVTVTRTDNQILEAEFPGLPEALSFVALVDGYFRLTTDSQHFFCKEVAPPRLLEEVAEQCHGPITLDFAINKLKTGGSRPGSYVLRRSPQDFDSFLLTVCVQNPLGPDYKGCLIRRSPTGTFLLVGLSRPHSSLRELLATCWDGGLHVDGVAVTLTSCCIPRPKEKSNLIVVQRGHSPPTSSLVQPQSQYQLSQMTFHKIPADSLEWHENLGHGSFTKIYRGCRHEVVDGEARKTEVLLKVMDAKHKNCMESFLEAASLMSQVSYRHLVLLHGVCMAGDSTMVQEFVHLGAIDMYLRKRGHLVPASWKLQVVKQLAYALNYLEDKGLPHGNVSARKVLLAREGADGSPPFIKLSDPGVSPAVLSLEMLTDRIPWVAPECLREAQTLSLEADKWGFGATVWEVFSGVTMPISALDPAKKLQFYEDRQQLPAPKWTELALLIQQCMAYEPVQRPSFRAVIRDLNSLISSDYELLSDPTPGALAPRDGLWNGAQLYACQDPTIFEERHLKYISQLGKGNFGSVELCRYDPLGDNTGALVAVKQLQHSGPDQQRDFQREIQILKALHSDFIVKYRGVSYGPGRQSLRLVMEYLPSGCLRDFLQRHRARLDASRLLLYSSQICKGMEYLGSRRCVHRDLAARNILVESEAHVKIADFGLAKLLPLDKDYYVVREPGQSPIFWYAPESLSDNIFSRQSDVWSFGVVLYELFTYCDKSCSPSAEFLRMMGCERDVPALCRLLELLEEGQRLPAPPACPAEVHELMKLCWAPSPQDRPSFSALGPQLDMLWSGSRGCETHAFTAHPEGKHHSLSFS
Sequence of UniProt Q8WTQ7 (whole entry, looked up): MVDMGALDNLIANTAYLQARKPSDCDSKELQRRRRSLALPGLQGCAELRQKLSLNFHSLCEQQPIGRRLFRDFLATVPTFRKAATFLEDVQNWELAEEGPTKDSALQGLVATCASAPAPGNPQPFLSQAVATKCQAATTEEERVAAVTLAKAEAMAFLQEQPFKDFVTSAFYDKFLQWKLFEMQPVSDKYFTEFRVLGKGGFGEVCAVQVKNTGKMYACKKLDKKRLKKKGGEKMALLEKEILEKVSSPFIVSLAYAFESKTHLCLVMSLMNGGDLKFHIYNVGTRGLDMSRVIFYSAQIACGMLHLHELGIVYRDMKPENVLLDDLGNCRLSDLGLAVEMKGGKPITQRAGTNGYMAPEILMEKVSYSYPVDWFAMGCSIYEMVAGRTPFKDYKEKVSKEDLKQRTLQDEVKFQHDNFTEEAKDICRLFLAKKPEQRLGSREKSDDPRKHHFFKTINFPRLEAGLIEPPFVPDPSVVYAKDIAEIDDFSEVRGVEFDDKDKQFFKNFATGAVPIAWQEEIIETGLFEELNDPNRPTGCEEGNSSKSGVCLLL
Sequence of UniProt Q04912 (whole entry, looked up): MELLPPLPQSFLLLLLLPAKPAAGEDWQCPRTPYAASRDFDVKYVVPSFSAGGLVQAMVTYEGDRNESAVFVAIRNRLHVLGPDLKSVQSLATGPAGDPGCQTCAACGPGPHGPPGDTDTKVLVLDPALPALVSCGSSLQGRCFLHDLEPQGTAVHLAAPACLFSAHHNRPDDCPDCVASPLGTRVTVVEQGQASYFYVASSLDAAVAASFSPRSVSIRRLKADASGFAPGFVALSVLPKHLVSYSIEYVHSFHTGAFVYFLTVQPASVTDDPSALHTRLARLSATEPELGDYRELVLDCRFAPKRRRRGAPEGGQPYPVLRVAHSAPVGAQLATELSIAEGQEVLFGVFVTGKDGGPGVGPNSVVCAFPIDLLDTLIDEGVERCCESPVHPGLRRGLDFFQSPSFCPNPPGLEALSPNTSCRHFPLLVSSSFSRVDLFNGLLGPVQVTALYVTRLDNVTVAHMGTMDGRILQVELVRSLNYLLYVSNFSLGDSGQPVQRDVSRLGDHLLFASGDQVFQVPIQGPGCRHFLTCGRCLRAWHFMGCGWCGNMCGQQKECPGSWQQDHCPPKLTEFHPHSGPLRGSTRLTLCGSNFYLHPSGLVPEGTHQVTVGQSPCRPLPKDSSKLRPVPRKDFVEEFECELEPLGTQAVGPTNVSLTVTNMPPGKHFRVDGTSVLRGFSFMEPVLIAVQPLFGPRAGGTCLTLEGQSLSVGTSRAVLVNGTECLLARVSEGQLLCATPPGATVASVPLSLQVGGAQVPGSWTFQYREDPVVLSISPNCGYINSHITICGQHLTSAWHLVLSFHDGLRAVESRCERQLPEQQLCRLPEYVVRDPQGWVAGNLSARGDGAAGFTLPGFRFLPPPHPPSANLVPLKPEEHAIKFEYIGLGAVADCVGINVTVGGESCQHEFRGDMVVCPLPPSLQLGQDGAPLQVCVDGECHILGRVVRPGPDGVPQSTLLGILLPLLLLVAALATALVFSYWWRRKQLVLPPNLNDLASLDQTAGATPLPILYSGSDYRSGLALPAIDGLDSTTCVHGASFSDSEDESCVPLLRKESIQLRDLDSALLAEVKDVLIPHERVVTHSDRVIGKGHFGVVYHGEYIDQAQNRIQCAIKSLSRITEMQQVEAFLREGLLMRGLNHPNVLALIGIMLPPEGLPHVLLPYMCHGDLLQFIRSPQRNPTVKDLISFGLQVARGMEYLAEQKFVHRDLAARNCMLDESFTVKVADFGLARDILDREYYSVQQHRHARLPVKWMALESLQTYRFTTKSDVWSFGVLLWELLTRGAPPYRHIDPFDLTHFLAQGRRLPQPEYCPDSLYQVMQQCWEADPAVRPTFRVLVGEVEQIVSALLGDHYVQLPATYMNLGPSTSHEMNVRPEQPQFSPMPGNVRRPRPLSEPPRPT

Study 1 — observed: enzyme activity; action: inhibitor; concentration: 0.5 µM; relative to: control; endpoint: remaining activity
Structure (SMILES): O=C(NC(NC(=S)Nc1ccc(F)c([N+](=O)[O-])c1)C(Cl)(Cl)Cl)C(c1ccccc1)c1ccccc1 (stereo not drawn)
Mitogen-activated protein kinase kinase kinase 14 (MAP3K14, Homo sapiens, UniProt Q99558): 92.1%
Tyrosine-protein kinase JAK3 (JAK3, Homo sapiens, UniProt P52333): 110%
Rhodopsin kinase GRK7 (GRK7, Homo sapiens, UniProt Q8WTQ7): 101%
Ephrin type-A receptor 3 (EPHA3, Homo sapiens, UniProt P29320): 105%
Tyrosine-protein kinase Mer (MERTK, Homo sapiens, UniProt Q12866): 96.2%
Mitogen-activated protein kinase kinase kinase 5 (MAP3K5, Homo sapiens, UniProt Q99683): 97.1%
Glycogen synthase kinase-3 beta (GSK3B, Homo sapiens, UniProt P49841): 109%
Dual specificity mitogen-activated protein kinase kinase 2 (MAP2K2, Homo sapiens, UniProt P36507): 82.3%
Macrophage-stimulating protein receptor (MST1R, Homo sapiens, UniProt Q04912): 102%
Angiopoietin-1 receptor (TEK, Homo sapiens, UniProt Q02763): 97.8%

Study 2 — observed: cell-free assay; technique: competition with immobilised ligand; concentration: 0.1 µM; endpoint: remaining binding
SMILES: C[C@H](c1ccnc(Nc2nc3ccc(-c4cc(N(C)C)ncn4)cc3[nH]2)c1)N1CCN(C(=O)CC(F)(F)F)CC1
Tyrosine-protein kinase ABL1, phosphorylated (ABL1, Homo sapiens, UniProt P00519, F317L): 100%
Phosphatidylinositol 4,5-bisphosphate 3-kinase catalytic subunit alpha isoform (PIK3CA, Homo sapiens, UniProt P42336, M1043I): 84%
Serine/threonine-protein kinase PLK1 (PLK1, Homo sapiens, UniProt P53350): 100%
Receptor tyrosine-protein kinase erbB-4 (ERBB4, Homo sapiens, UniProt Q15303): 96%

Study 3 — technique: RNA Bind-n-Seq; form: RNA; sample: in vitro; concentration: not given; relative to: input RNA pool; direction: higher = stronger binding; endpoint: bound/input enrichment
Target: RING finger protein unkempt homolog, zinc fingers 1-6, GST-SBP tag (UNK, Homo sapiens, UniProt Q9C0B0, residues 30-357)
Sequence of UniProt Q9C0B0 (30-357, looked up): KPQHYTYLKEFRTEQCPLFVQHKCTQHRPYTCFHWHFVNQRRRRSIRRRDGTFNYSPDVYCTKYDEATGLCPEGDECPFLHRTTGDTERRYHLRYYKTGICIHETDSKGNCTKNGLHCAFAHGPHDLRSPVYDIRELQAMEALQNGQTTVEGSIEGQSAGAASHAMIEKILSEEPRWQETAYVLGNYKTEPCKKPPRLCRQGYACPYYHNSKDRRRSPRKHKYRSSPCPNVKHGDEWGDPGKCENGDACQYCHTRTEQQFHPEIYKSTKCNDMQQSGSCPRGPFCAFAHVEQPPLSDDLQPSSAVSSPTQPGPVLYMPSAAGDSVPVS
Notes: RNA with constant flanks, human and mouse sites, ends assumed
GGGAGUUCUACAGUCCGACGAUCGCCCAGGCAGCGGCGGCGGCGGCGGCGGUUCCUCUCGGGUUACGGUGAAGAAUGUCAGCCACUAGCGUGGAUCAGAGACCUAAAGGGCAAGGAAAUAAAGUUUCAGUACAAAAUGGUUCGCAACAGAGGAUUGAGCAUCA: 0.147 ratio
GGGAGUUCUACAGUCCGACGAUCAUCCUUUUUUUUUUCUUUAUAUUUUGGGUUUUGGAGCUUUUAAAAAUGUUUGCUUUCAGGUAUUUUUACUCAUGUGAAGUGAUCUUGAUUCUUCUGAGGUUUUAAACUAAAAUGUUGCUUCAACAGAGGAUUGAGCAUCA: 0.687 ratio
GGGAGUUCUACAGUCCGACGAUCAUCUAUGCUAACCUCUCUGAUGAGAAGGCUUUCGUGUUUUCAGUUGCCUUGGCAGAAAUAAAUAGAAAAAUUAUCAAUCAAAGACUUAUUCUCUGAUAUUUGUCUUCAAACUCUGUUGGUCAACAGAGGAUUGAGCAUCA: 0.634 ratio
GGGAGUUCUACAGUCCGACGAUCACGUCAGUGGUCAUUAGCUCCUGCUCUCUGGCUGAAGCCCGCCUCCUGCUAGACAACUUCCUCAAGGCGUCCAUUGACAAGGGACUUCAAGUAGCACAGAAGGAAGCCCAGAUCCGGCUGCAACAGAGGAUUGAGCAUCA: 0.147 ratio
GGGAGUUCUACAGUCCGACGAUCCGAAAUGUCUCCUGUGUCACAUAUUCUGGAGGUUACAUCUUUCUGUGACAACAGGGAGUUUCCUUAUGCAUUCUUCAUUUGCUGCUGUUUAAGUUGACAACUUCCUUCCCAAUAAAAAUUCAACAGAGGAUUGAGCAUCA: 0.287 ratio
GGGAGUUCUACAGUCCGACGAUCAAAUAUAUGAAAAGUAGAACUAUUCUGCAGCAGCACAUGAAGAAAUGUGGUUGGUUCCAUCCUCCUGCCAAUGAGAUUUACAGAAAGAAUAAUAUUUCUGUCUUUGAGGUUGAUGGGAAUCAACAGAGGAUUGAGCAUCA: 0.299 ratio
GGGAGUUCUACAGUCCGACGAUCCUGGAUACAGUGGAGGAUGACAUGAGCAUCAGUGUGGAGAAGAAGAUCCCACUGCUGUGUAACUUCCACACUUUCCUCUAUGACCCAGAGUGGCGGUUCACUGAGAGCAAGGAGAAGGACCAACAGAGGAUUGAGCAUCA: 0.156 ratio
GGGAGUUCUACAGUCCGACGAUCGUUAUAAAAGCCUUCCGUCACUCGUACCUUUACGAAUUGCGGCAUUAAAUGCACUUGCUGCCUGCAAUUACCUUCCUCAGUCCAGGGAGAAAAUCAUCGCUGCACUCUUCAAAGCCCUGACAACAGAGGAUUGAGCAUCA: 0.245 ratio

Study 4 — technique: RNAcompete; form: RNA; sample: in vitro; concentration: 20 nM; notes: 7-mer, probes averaged, single round; relative to: mean of 7-mers; direction: higher = stronger binding; endpoint: 7-mer Z-score
Target: PABPC1L2, full length, GST fusion (mouse, UniProt A0ABA7IW68)
Target sequence (chain): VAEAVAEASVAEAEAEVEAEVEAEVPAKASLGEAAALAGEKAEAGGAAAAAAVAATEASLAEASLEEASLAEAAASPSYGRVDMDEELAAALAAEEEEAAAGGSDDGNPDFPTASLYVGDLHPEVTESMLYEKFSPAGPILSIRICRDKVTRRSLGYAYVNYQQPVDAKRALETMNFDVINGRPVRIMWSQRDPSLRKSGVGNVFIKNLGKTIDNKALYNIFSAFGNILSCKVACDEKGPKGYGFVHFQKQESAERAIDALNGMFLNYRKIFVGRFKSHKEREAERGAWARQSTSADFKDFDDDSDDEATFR
AGUCGCA: -0.195
AGCCGUG: -0.0554
AGUAACG: -0.0101
AAAGUUU: 0.635
UCGGAUC: -0.137
AGACACG: -0.2
AGCGUGC: -0.0826
GCCUGAC: -0.289

Excerpt of the above (study 3):
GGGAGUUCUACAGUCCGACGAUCCUGGAUACAGUGGAGGAUGACAUGAGCAUCAGUGUGGAGAAGAAGAUCCCACUGCUGUGUAACUUCCACACUUUCCUCUAUGACCCAGAGUGGCGGUUCACUGAGAGCAAGGAGAAGGACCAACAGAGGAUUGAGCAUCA: 0.156 ratio
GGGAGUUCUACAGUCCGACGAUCAUCCUUUUUUUUUUCUUUAUAUUUUGGGUUUUGGAGCUUUUAAAAAUGUUUGCUUUCAGGUAUUUUUACUCAUGUGAAGUGAUCUUGAUUCUUCUGAGGUUUUAAACUAAAAUGUUGCUUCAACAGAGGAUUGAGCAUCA: 0.687 ratio
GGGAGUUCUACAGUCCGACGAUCGUUAUAAAAGCCUUCCGUCACUCGUACCUUUACGAAUUGCGGCAUUAAAUGCACUUGCUGCCUGCAAUUACCUUCCUCAGUCCAGGGAGAAAAUCAUCGCUGCACUCUUCAAAGCCCUGACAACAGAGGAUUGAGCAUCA: 0.245 ratio
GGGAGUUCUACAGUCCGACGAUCACGUCAGUGGUCAUUAGCUCCUGCUCUCUGGCUGAAGCCCGCCUCCUGCUAGACAACUUCCUCAAGGCGUCCAUUGACAAGGGACUUCAAGUAGCACAGAAGGAAGCCCAGAUCCGGCUGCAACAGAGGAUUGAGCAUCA: 0.147 ratio
